# Assay results from different studies.
# Numbers after ± are the reported error.
# Sequence of UniProt P04062 (whole entry, unmodified, looked up): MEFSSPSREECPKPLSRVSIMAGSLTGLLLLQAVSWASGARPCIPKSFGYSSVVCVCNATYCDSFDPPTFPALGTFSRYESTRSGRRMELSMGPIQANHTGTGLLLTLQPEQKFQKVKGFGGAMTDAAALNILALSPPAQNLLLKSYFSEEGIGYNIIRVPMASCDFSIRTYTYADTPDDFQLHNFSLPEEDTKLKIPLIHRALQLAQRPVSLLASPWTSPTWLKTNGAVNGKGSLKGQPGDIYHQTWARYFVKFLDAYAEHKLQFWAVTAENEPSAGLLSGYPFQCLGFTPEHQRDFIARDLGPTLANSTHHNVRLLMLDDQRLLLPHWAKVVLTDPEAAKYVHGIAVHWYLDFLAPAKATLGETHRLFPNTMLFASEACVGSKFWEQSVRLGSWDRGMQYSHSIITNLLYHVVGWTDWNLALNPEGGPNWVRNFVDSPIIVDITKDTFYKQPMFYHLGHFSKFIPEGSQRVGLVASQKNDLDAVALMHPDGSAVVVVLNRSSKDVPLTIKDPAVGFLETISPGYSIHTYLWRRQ
SMILES,target or system,assay,test system,conditions,how to read,quantity,result
Cc1cc(-c2ccc(NC(=O)CC[C@H](NC(=O)CN3CCN(CC(=O)O)CCN(CC(=O)O)CCN(CC(=O)O)CC3)C(=O)NCC(=O)N[C@@H](CC(N)=O)C(=O)N[C@H](C(=O)N[C@H](C(=O)N[C@@H](CCCNC(=N)N)C(=O)N[C@@H](CCC(N)=O)C(=O)O)C(C)C)C(C)C)c(C)c2)ccc1/N=N/c1ccc2c(S(=O)(=O)O)cc(S(=O)(=O)O)c(N)c2c1O [copper-64 labelled],,,"nude mice, heart","intravenous, 2 h",,tissue uptake,16.6 ± 2.4 %ID/g
N#C[C@@H]1CC(F)(F)CN1C(=O)CNC(=O)c1ccnc2ccc(OCCCN3CCN(C(=O)CN4CCN(CC(N)=O)CCN(CC(N)=O)CCN(CC(N)=O)CC4)CC3)cc12 [lead-203 labelled],,,"male NRG mice, HEK293T-hFAP tumour, liver","intravenous, 100 pmol, 1 h, ex vivo, unblocked",,tissue uptake,1.02 ± 0.11 %IA/g
CCCC[C@@H]1NC(=O)[C@@H](CC(C)C)NC(=O)[C@H](CCCCNC(=O)CN2CCN(CC(=O)O)CCN(CC(=O)O)CC2)NC(=O)[C@@H](CO)NC(=O)[C@H](Cc2c[nH]cn2)NC(=O)[C@@H](Cc2c[nH]c3ccccc23)NC1=O [copper-64 labelled],,,"Balb/c mice, brain","intravenous, dose not given",,tissue uptake,0.01 %ID/g
CC(C)C[C@@H](NC(=O)[C@@H](CC(C)C)NC(=O)[C@@H](CC(=O)O)NC(=O)[C@@H](CC(C)C)NC(=O)[C@@H](CC(C)C)NC(=O)[C@@H](CC(C)C)NC(=O)[C@H](NC(=O)[C@@H](CC(=O)O)NC(=O)[C@H](NC(=O)[C@H]1CCCN1C(=O)[C@@H](Cc1ccccc1)NC(=O)[C@@H](CC(C)C)NC(=O)[C@@H](CC(C)C)NC(=O)[C@@H](CC(=O)O)NC(=O)[C@@H](CC(C)C)NC(=O)[C@@H](Cc1ccc(O)cc1)NC(=O)[C@@H](C)NC(=O)[C@@H](CCCNC(=N)N)NC(=O)[C@@H](Cc1c[nH]c2ccccc12)NC(=O)[C@H]1CCCN1C(=O)[C@@H](CC(N)=O)NC(=O)[C@@H](CCC(N)=O)NC(=O)[C@@H](CC(=O)O)NC(=O)[C@@H](CC(=O)O)NC(=O)[C@@H](CSC1CC(=O)N(CCNC(=O)CN2CCN(CC(=O)O)CCN(CC(=O)O)CC2)C1=O)NC(=O)[C@@H](C)N)[C@H](C)O)[C@H](C)O)C(=O)N[C@H](Cc1c[nH]c2ccccc12)C(=O)O (some centres unmarked) [copper-64 labelled],,,"C57BL/6 mice, female, B16-F10 melanoma, tumor","intravenous, 1 h",,tissue uptake,5.42 %ID/g
CC(C)C[C@H](NC(=O)[C@@H](CCCCNC(=O)[C@@H](Cc1ccccc1)NC(=O)CCCCCNC(=O)CN1CCN(CC(=O)O)CCN(CC(=O)O)CCN(CC(=O)O)CC1)NC(=O)[C@H](Cc1ccc(O)cc1)NC(=O)[C@H](CO)NC(=O)[C@H](Cc1c[nH]c2ccccc12)NC(=O)[C@H](Cc1c[nH]cn1)NC(=O)[C@@H]1CCC(=O)N1)C(=O)N[C@@H](CCCNC(=N)N)C(=O)N1CCC[C@H]1C(=O)NCC(N)=O [indium-111 labelled],,,"female athymic nude mice, stomach","intravenous, 0.037 MBq, 0.5 h",,tissue uptake,4.2 ± 2.68 %ID/g
CCCC[C@H](NC(=O)CCCCCCCNC(=O)CN1CCN(CC(=O)O)CCN(CC(=O)O)CC1)C(=O)N[C@H]1CC(=O)NCCCC[C@@H](C(N)=O)NC(=O)[C@H](Cc2c[nH]c3ccccc23)NC(=O)[C@H](CCCNC(=N)N)NC(=O)[C@@H](Cc2ccccc2)NC(=O)[C@H](Cc2c[nH]cn2)NC1=O [technetium-99m labelled],,,"C57 mouse, blood","intravenous, 0.037 MBq, 24 h",,tissue uptake,0.06 ± 0.17 %ID/g
CCCC[C@@H]1NC(=O)[C@@H](CC(C)C)NC(=O)[C@H](CCCCNC(=O)CN2CCN(CC(=O)O)CCN(CC(=O)O)CC2)NC(=O)NNC(=O)[C@H](Cc2c[nH]cn2)NC(=O)[C@@H](Cc2c[nH]c3ccccc23)NC1=O [copper-64 labelled],,,"Balb/c mice, lungs","intravenous, dose not given",,tissue uptake,1.14 ± 0.58 %ID/g
Cc1c(Cc2ccccc2)c(NCCN(C)C)n2c(nc3ccccc32)c1C#N,Trypanosoma cruzi,"reporter mRNA translation, inhibitor, item: capped polyadenylated Renilla luciferase mRNA",cell-free extract,concentration not given,reference: control RNA,relative translation,114%
O=C(CCCCCN1C[C@H](O)[C@@H](O)[C@H](O)[C@H]1CO)NC12CC3CC(CC(C3)C1)C2,"GBA1 (Homo sapiens, UniProt P04062, R534H)","inhibitor, 4MU-β-D-glucopyranoside",,with: 4MU-β-D-glucopyranoside,,IC50,500 nM
N#C[C@@H]1CC(F)(F)CN1C(=O)CNC(=O)c1ccnc2ccc(OCCCN3CCN(C(=S)Nc4ccc(C[C@H]5CN(CC(N)=O)CCN(CC(N)=O)CCN(CC(N)=O)CCN5CC(N)=O)cc4)CC3)cc12 [lead-203 labelled],,,"male NRG mice HEK293T-hFAP tumour, kidneys","intravenous, 100 pmol, 1 h, unblocked",,tissue uptake,3.79 ± 0.85 %ID/g
Br.CCCCCCCCCn1c2c(c(=N)c3c1CCC3)CCCC2,Trypanosoma cruzi,"reporter mRNA translation, inhibitor, item: capped polyadenylated Renilla luciferase mRNA",cell-free extract,concentration not given,reference: control RNA,relative translation,32.5%

# For quick reference, copied from above:
SMILES,target or system,assay,test system,conditions,how to read,quantity,result
CC(C)C[C@H](NC(=O)[C@@H](CCCCNC(=O)[C@@H](Cc1ccccc1)NC(=O)CCCCCNC(=O)CN1CCN(CC(=O)O)CCN(CC(=O)O)CCN(CC(=O)O)CC1)NC(=O)[C@H](Cc1ccc(O)cc1)NC(=O)[C@H](CO)NC(=O)[C@H](Cc1c[nH]c2ccccc12)NC(=O)[C@H](Cc1c[nH]cn1)NC(=O)[C@@H]1CCC(=O)N1)C(=O)N[C@@H](CCCNC(=N)N)C(=O)N1CCC[C@H]1C(=O)NCC(N)=O [indium-111 labelled],,,"female athymic nude mice, stomach","intravenous, 0.037 MBq, 0.5 h",,tissue uptake,4.2 ± 2.68 %ID/g
